Measurements of several laboratories.
Parts stem from different laboratories: compare values within a part only.

Series 1
Target: Replicase polyprotein 1ab, polymerase (rep, Severe acute respiratory syndrome coronavirus 2, UniProt P0DTD1)
Effect on: enzyme activity
Mode: inhibitor
Concentration: 20 µM
| SMILES | inhibition [%] |
| --- | --- |
| CCCCCCCCCCCC1=C(O)C(=O)C=C(O)C1=O | 8.45 |
| CCn1cc(C(=O)O)c(=O)c2ccc(C)nc21 | 10.8 |
| COc1ccc(/C=C/C(=O)Nc2ccccc2C(=O)O)cc1OC | 9.3 |
| CCCC(=O)Nc1ncnc2c1ncn2[C@@H]1O[C@@H]2COP(=O)(O)O[C@H]2[C@H]1OC(=O)CCC | -0.96 |
| C1CCC(C(CC2CCCCN2)C2CCCCC2)CC1 (centres unmarked) | -0.67 |
| CCC(COC(=O)c1cc(OC)c(OC)c(OC)c1)(c1ccccc1)N(C)C (centres unmarked) | -19 |
| CCn1c(-c2nonc2N)nc2cnc(Oc3cccc(NC(=O)c4ccc(OCCN5CCOCC5)cc4)c3)cc21 | 5.36 |
| Nc1nccc(Oc2ccc(NC(=O)c3cn(COP(=O)(O)O)cc(-c4ccc(F)cc4)c3=O)cc2F)c1Cl | 18.5 |
| CCCn1c(=O)[nH]c(=O)c2[nH]cnc21 | 37.9 |
| CS(=O)(=O)N1CCc2c(-c3cnc(N)nc3)nc(N3CCOCC3)nc21 | -1.85 |
| C[C@@H]1CC2C3CCC4=CC(=O)C=C[C@]4(C)[C@@]3(F)[C@@H](O)C[C@]2(C)[C@H]1C(=O)CO (some centres unmarked) | -3.24 |
| Cc1ccc2c(c1)[C@]13CCCC[C@@H]1[C@H](C2)N(C)CC3 | 9.85 |
| Oc1cc(O)cc(O)c1 | -0.99 |
| CCc1cc(O)c(Oc2ccc(C(N)=O)cc2F)cc1F | 5.35 |
| C/C=C/c1cc(OC)c(OC)cc1OC | -0.93 |
| COc1cc(/C=C2\CCC/C(=C\c3ccc(O)c(OC)c3)C2=O)ccc1O | 9.65 |
| CCCCC/C=C\C=C\CCCCCCCCC(=O)O | -6.76 |
| CC(N)Cc1c[nH]c2ccc(OCc3cccs3)cc12 (centres unmarked) | 6.38 |
| COc1cc(SC)ccc1C(=O)N1CCC(Cc2ccccc2)CC1 | 4.64 |
| Cc1nn(C)c2c1C(c1ccc(C(F)(F)F)cc1)C(C#N)=C(N)O2 (centres unmarked) | 6.56 |
| O=C(O)c1cc(/N=N/c2ccc(S(=O)(=O)Nc3ccccn3)cc2)ccc1O | 29.3 |
| O=C(O)CCc1nc(-c2ccccc2)c(-c2ccccc2)o1 | -7.63 |
| CCC(C(=O)O)c1ccc(CC(C)C)cc1 (centres unmarked) | -0.56 |
| Ic1cc(-c2ccccc2)ncn1 | 0.38 |
| C=C(C)[C@@H]1CC[C@]2(C(=O)O)CC[C@]3(C)[C@H](CC[C@@H]4[C@@]5(C)CC[C@H](O)C(C)(C)[C@@H]5CC[C@]43C)[C@@H]12 | 6.5 |

Series 2
Target: Myc proto-oncogene protein, bHLH-zipper, MAX partner unstated (MYC, Homo sapiens, UniProt P01106, residues 368-449)
UniProt P01106, sequence (368-449, looked up): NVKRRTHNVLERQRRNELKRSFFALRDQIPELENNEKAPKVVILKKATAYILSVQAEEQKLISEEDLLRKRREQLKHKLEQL
Method: protein-binding microarray
Molecule type: double-stranded DNA, one strand shown
Sample: in vitro
Concentration: not given
Notes: k-mer, scored over probes, only values ≥0.25
Direction: higher = stronger binding
| Strand | E-score |
| --- | --- |
| GTGCTTCA | 0.28 |
| ACCGCGAG | 0.26 |
| CGTGTACC | 0.402 |

Series 3
Target: Sal-like protein 4, full length isoform B (SALL4, Homo sapiens, UniProt Q9UJQ4-2, residues 1-616)
Method: universal PBM
Molecule type: double-stranded DNA, one strand shown
Sample: in vitro
Concentration: not given
Notes: 8-mer, flanks averaged, mean of replicates
Direction: higher = stronger binding
Residues (chain): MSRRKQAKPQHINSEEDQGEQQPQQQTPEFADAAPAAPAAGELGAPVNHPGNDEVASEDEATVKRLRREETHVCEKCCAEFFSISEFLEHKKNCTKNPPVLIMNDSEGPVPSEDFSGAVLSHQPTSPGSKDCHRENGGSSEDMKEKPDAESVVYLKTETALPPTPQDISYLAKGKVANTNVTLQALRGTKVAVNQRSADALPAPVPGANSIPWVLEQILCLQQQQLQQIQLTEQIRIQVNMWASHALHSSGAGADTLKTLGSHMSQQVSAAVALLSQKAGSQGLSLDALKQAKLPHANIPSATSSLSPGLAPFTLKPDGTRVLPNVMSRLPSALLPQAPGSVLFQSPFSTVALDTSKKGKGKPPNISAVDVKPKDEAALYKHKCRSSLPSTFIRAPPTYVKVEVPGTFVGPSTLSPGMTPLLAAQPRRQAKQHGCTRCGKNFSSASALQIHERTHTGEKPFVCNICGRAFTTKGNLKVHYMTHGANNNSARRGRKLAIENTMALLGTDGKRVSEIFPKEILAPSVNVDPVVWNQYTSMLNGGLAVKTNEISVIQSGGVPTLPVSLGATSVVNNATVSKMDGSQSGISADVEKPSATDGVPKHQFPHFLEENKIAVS
| Strand | E-score |
| --- | --- |
| AATACAGG | 0.191 |
| AAGGGTTA | 0.105 |
| ATCAACGC | 0.111 |
| AACGCATG | 0.0434 |
| CCGAAGAG | -0.0984 |
| GACCGGCC | -0.392 |
| CTTGGATA | 0.0665 |
| CTAGCGGC | -0.292 |

Series 4
Cell line: HEK-293T
Effect on: pseudovirus infection
Method: FDA-approved drug library screen
Organism: VSV pseudotyped with SARS-CoV-2 spike
Concentration: 10 µM
Time: 16 h
Reference: vehicle-treated
| SMILES | GFP-positive cells |
| --- | --- |
| C[C@]12CC[C@@H]3c4ccc(OC(=O)c5ccccc5)cc4CC[C@H]3[C@@H]1CC[C@@H]2O | 98.7% |
| COc1ccc(C(=O)c2ccccc2)c(O)c1 | 104% |
| C[C@]12C=CC(=O)C=C1CC[C@H]1[C@@H]3C[C@@H](O)[C@](O)(C(=O)CO)[C@@]3(C)C[C@H](O)[C@@]12F | 100% |
| Nc1ccc(/N=N/c2ccccc2)c(N)n1 | 99% |
| CO/N=C(\C(=O)N[C@@H]1C(=O)N2C(C(=O)O)=C(C[N+]3(C)CCCC3)CS[C@H]12)c1csc(N)n1 | 101% |

Series 5
Target: Interferon regulatory factor 3, full length, phosphomimetic (IRF3, Homo sapiens, UniProt Q14653, residues 1-427, S386D/S396D/S398D/S402D/T404D/S405D)
Method: protein-binding microarray
Molecule type: double-stranded DNA, one strand shown
Sample: in vitro
Concentration: 2540 nM top
Notes: 60-bp whole probe
Together with: salmon DNA 0.4 mg/ml
Reference: random background probes
Direction: higher = stronger binding
Constant ends, left off below: GCCTAGCAC … GTCTTGATTCGCTTGACGCTGCTG
Residues (chain): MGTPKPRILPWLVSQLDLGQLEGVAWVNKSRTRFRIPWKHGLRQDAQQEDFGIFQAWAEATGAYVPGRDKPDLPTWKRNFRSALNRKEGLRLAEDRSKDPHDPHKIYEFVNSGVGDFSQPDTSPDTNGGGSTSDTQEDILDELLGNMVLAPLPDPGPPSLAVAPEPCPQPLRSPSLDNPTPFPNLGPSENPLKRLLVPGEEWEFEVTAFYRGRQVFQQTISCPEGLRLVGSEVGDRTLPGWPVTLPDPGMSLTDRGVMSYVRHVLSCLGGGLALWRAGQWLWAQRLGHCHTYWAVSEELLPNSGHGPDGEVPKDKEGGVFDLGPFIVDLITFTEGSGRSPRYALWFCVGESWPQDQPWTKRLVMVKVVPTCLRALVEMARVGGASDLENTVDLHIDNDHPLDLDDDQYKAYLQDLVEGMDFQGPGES
| Strand | fitted relative affinity |
| --- | --- |
| TCAGGTTCCCATTCCAGACTGTGCTAG | 4.45 z-score |
| TCATTTCTGTTGTCTGTGACTGTGCTA | 1.97 z-score |
| GACGGTCTCGGACTTGGGACGTGCTAG | 0.322 z-score |
| GACGATATCAGTTTCGATACGTGCTAG | 5.18 z-score |
| GACGGACTGGCGTTTCGGGACGTGCTA | 0.279 z-score |
| GACGGTCTCCTACTGGTGACGTGCTAG | 0.968 z-score |
| TCAGATTTCAGTTCCGATTAGTGCTAG | 4.02 z-score |
| GACGAACTGAGTTTCCAGACGTGCTAG | 2.27 z-score |

Series 6
Target: Replicase polyprotein 1ab, main protease (rep, Severe acute respiratory syndrome coronavirus 2, UniProt P0DTD1)
Effect on: enzyme activity
Mode: inhibitor
Concentration: 20 µM
Notes: hit confirmation
| SMILES | inhibition [%] |
| --- | --- |
| Cn1sc(=O)n(Cc2ccccc2)c1=O | 110 |
| O=[N+]([O-])c1ccc2c(c1)S(=O)(=O)C=C2 | 6.2 |
| CC(C)/N=c1\cc2n(-c3ccc(Cl)cc3)c3ccccc3nc-2cc1Nc1ccc(Cl)cc1 | 17 |
| Cc1sc(N)c(C(=O)c2cccc(C(F)(F)F)c2)c1C | 23 |

For quick reference, copied from above (series 3):
| Strand | E-score |
| --- | --- |
| CCGAAGAG | -0.0984 |
| GACCGGCC | -0.392 |
| CTTGGATA | 0.0665 |
